Experimental data collected from several papers.
Every numbered part comes from another study and shows a few of its results, in no order. Changes are numbered by the printed parent chain.
UniProt P32298, sequence (whole entry, looked up): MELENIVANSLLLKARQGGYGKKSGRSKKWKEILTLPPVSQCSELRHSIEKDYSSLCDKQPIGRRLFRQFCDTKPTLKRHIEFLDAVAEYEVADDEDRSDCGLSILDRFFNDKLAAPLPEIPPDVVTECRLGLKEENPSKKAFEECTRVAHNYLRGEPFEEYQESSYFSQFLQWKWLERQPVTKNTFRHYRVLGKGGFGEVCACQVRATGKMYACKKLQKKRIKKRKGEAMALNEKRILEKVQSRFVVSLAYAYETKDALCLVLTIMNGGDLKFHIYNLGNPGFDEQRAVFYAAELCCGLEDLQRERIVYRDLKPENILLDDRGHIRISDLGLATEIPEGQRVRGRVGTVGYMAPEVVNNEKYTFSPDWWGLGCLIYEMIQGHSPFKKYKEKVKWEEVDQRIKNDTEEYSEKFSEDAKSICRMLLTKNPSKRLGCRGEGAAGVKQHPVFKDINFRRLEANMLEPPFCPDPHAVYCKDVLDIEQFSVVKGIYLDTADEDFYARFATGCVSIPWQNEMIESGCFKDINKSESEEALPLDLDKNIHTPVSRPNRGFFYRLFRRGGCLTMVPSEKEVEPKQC
UniProt Q9H4B4, sequence (whole entry, looked up): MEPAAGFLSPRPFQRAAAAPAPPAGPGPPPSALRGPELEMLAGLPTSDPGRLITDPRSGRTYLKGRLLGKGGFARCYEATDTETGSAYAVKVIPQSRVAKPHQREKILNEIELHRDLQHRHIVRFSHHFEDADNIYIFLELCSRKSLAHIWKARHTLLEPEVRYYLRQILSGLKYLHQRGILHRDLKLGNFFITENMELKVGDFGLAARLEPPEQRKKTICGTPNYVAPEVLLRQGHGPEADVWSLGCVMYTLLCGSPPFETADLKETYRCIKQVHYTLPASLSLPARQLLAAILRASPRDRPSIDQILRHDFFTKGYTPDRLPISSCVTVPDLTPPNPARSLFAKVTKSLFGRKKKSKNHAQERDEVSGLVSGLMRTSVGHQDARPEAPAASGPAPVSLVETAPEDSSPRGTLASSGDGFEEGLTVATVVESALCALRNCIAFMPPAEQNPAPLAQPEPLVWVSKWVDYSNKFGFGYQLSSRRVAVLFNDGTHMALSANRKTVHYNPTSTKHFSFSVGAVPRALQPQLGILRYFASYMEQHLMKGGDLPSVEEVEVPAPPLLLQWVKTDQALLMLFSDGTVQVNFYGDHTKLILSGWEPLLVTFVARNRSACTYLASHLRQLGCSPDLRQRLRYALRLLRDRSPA
UniProt Q9Y5S2, sequence (whole entry, looked up): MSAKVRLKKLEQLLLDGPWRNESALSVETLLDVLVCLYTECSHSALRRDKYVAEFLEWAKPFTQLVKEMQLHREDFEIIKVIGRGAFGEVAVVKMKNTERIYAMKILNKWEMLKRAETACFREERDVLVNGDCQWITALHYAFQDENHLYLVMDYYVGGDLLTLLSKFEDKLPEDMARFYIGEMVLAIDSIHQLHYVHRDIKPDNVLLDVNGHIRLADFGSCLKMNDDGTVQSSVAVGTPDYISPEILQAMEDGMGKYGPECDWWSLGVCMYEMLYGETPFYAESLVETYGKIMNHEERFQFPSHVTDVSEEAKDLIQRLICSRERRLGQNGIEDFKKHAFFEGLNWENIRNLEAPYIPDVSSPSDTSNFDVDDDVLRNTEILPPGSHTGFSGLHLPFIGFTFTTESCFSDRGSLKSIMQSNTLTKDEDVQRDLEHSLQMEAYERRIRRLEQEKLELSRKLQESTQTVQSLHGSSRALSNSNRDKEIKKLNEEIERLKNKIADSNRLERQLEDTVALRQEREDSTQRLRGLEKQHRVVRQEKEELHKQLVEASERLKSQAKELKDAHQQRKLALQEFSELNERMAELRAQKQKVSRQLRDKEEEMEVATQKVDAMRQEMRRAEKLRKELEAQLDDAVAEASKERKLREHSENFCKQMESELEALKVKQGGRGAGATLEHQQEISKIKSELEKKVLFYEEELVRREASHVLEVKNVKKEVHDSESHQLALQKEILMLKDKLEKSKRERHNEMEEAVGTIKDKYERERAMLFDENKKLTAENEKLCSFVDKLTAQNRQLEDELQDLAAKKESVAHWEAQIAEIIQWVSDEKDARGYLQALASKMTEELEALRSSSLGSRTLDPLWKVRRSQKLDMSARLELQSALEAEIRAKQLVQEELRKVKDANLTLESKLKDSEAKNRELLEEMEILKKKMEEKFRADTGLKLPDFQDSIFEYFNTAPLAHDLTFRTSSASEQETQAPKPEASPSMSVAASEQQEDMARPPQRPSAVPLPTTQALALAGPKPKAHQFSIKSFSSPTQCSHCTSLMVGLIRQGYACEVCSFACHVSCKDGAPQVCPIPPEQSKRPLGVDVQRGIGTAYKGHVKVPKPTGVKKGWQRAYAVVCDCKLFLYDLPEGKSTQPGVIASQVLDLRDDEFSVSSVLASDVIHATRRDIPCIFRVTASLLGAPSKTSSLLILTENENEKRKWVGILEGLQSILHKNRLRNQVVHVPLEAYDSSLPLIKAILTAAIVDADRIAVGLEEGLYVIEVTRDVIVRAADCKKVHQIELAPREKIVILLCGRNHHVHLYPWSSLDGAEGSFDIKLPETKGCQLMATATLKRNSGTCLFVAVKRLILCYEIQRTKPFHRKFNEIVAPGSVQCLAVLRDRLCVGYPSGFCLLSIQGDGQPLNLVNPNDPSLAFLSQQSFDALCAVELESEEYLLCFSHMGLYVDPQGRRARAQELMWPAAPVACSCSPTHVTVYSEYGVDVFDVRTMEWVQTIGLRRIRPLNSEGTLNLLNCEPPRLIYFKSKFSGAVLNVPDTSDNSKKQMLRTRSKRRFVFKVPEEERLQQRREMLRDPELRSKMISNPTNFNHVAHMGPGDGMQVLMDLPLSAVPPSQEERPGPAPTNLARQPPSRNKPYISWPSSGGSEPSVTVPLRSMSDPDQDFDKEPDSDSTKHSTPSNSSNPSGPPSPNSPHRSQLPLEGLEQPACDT
UniProt Q7KZI7, sequence (whole entry, looked up): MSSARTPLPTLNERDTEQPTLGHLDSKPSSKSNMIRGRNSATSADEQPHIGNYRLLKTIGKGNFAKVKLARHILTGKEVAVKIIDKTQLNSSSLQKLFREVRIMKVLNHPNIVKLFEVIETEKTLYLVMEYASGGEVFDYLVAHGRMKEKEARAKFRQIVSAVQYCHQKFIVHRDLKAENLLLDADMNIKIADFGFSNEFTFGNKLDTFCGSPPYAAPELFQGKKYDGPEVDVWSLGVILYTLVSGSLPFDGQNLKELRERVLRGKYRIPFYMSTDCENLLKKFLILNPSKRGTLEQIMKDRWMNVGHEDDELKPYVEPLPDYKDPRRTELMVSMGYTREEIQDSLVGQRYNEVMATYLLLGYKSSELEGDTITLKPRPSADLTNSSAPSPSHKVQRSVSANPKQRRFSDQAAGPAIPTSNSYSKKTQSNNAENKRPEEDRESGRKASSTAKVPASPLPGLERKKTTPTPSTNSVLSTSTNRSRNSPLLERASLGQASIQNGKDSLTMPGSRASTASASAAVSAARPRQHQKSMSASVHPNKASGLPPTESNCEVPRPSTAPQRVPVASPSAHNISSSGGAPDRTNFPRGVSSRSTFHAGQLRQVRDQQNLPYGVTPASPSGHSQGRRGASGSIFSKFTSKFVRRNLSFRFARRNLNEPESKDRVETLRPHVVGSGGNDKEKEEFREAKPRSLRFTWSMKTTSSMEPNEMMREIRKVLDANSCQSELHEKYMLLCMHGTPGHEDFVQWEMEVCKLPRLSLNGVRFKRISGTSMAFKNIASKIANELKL
UniProt Q8N568, sequence (whole entry, looked up): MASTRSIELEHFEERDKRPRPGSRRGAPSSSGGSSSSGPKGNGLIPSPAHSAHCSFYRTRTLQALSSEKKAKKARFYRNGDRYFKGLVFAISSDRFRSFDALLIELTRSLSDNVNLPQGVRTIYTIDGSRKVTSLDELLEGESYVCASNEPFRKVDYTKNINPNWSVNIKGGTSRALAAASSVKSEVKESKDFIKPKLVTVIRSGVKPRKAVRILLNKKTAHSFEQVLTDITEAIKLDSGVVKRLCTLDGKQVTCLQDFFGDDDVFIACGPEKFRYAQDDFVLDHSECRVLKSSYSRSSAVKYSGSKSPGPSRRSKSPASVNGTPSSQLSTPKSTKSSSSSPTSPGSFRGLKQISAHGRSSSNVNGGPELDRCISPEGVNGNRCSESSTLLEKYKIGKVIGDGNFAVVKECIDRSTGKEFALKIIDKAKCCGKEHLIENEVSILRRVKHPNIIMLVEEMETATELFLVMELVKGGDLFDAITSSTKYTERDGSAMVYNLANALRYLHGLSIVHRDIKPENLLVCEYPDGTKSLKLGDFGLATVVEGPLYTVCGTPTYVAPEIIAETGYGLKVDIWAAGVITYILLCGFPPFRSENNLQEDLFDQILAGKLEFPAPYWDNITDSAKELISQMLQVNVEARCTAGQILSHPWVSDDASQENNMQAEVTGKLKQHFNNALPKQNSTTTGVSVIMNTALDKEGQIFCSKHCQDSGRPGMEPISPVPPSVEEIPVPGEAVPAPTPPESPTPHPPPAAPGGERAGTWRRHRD
UniProt P31751, sequence (whole entry, looked up): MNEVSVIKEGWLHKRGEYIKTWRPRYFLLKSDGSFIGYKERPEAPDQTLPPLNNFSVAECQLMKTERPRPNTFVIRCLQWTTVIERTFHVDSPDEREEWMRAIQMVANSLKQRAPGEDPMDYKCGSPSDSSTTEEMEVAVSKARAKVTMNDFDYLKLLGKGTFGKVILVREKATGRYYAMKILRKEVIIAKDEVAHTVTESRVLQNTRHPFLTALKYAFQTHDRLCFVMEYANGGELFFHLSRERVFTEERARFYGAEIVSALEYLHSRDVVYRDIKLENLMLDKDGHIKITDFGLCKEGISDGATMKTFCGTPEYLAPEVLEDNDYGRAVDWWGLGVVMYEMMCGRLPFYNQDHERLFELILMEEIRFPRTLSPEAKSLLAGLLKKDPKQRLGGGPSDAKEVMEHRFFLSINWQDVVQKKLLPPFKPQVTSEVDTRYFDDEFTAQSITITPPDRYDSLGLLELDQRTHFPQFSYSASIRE

Sample 1
Target: vanadate, free oxyanion
Technique: microfluidic competitive inhibition
Matrix: in vitro, cell-free expressed
Tested at: not given
Notes: derived from inhibition constants, unchanged parent 676 nM
Reading: lower = stronger binding
Starting sequence: PafA, mature enzyme, eGFP fusion (Elizabethkingia meningoseptica, UniProt Q9KJX5); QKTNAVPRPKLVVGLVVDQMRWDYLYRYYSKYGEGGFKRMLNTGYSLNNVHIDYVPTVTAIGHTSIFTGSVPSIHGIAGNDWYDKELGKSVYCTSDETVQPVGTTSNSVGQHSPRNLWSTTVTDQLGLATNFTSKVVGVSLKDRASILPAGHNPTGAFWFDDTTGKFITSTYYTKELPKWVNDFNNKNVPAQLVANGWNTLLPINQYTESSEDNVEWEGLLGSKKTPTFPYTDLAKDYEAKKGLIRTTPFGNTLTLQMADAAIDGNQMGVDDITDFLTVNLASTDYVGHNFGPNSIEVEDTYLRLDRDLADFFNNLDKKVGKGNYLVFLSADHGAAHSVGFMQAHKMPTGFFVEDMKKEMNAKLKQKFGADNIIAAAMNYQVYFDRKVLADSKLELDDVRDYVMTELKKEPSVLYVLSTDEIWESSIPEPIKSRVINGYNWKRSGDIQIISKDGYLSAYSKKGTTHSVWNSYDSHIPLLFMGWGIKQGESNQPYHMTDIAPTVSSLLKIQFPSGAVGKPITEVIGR
Substitution | oxyanion analog dissociation constant [nM]
G484V | 682
L479V | 629
T502G | 2970
I499V | 695
L316V | 798
M378G | 2060
G151A | 402
C93V | 575

Sample 2
SMILES: N/C(=N\[N+](=O)[O-])N/N=C\c1ccc(-c2cccc([N+](=O)[O-])c2)o1
Observed: enzyme activity
Mode: inhibitor
Tested at: 0.5 µM
Relative to: control
target | remaining activity
MINK1 (Homo sapiens, UniProt Q8N4C8) | 84.1%
MAPK11 (Homo sapiens, UniProt Q15759) | 96.6%
AKT2 (Homo sapiens, UniProt P31751) | 99.7%
PRKG2 (Homo sapiens, UniProt Q13237) | 98.7%
GRK4 (Homo sapiens, UniProt P32298) | 95.5%
KDR (Homo sapiens, UniProt P35968) | 96.7%
PLK3 (Homo sapiens, UniProt Q9H4B4) | 96.8%
MARK2 (Homo sapiens, UniProt Q7KZI7) | 108%
CDC42BPB (Homo sapiens, UniProt Q9Y5S2) | 95.4%
DCLK2 (Homo sapiens, UniProt Q8N568) | 101%
DDR2 (Homo sapiens, UniProt Q16832) | 101%
MAPK1 (Homo sapiens, UniProt P28482) | 99.7%

Sample 3
Target: CCNE2, cyclin fold, Cln2 fusion (human)
Technique: yeast growth competition, sequencing
Matrix: yeast
Notes: strong parent motif
Relative to: not given
Reading: higher = stronger binding
Starting sequence: viral docking peptide; TSVRRALFTGGSD
Substitution | normalised enrichment score
TSVRRALFTGGTD [S12T] | 3.91
TSVPRALFTGGSD [R4P] | 0.454
TSVRNALFTGGSD [R5N] | -0.103
TSVRRALFTGGRD [S12R] | 3.34
TSVRRALFTGTSD [G11T] | 4.34
TSVRRAQFTGGSD [L7Q] | 0.0792
TSVRRALVTGGSD [F8V] | 0.0728
TSRRRALFTGGSD [V3R] | 1.11

Other studies, line by line
Compound | target | test | setting | quantity | value
CN1CCN(c2cnc3c(C4CCN(C(=O)c5ccc(OC(F)(F)F)cc5N)CC4)ncnc3c2)CC1 | Sodium-dependent serotonin transporter (SLC6A4, Homo sapiens, UniProt P31645) | ligand displacement | 10 µM | inhibition | 32.4%

Repeated from above (sample 2):
target | remaining activity
KDR (Homo sapiens, UniProt P35968) | 96.7%
PLK3 (Homo sapiens, UniProt Q9H4B4) | 96.8%
MARK2 (Homo sapiens, UniProt Q7KZI7) | 108%
